Assay results gathered from unrelated publications.
Each numbered part is a random draw from the data of one study; scales do not carry over between parts.

Series 1
Target: TAR DNA-binding protein 43, full length, His tag (TARDBP, Homo sapiens, UniProt Q13148, residues 1-414)
Method: RNA Bind-n-Seq
Molecule type: RNA
Matrix: in vitro
Concentration: 20 nM
Setting: 6-mer, flanks averaged, single round
Together with: 150 mM KCl
Reference: input library
Reading: higher = stronger binding
| Oligonucleotide | 6-mer enrichment (R) |
| --- | --- |
| GGCAUA | 0.997 |
| CGGGCU | 1.76 |
| CCGCUC | 0.612 |
| GGUAUU | 0.825 |
| UGACAA | 0.676 |
| CACGAU | 0.632 |
| GCUAGU | 0.844 |
| ACUACG | 0.68 |
| AGAGAG | 1.73 |
| CUGUGU | 0.867 |
| GCGGAA | 1.64 |
| CCGCCA | 0.679 |
| AAACUG | 0.637 |
| AUAGCG | 0.943 |
| GGUGCA | 1.56 |
| GGGUGC | 3.45 |
| CUCAGA | 0.623 |

Series 2
Target: Histone acetyltransferase KAT6A, winged helix 1, GST fusion (KAT6A, Homo sapiens, UniProt Q92794, residues 1-85)
Method: protein binding microarray
Molecule type: double-stranded DNA, one strand shown
Matrix: in vitro
Concentration: not given
Setting: 8-mer, flanks averaged, mean of 2 arrays, mostly near background
Reference: not given
Reading: higher = stronger binding
Residues (chain): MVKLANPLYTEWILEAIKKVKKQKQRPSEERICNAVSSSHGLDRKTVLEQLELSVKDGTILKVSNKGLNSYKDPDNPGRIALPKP
| Oligonucleotide | E-score |
| --- | --- |
| AAAACGTG | -0.0803 |
| AGCTTGGG | -0.178 |
| GGGGGGGA | -0.042 |
| CGCTTTCA | 0.0702 |
| ATACCTGA | -0.0174 |
| TCTCTAAA | -0.0334 |
| TAAGAGAA | -0.138 |
| CCGGTAAA | 0.33 |
| AGTCTTCA | -0.154 |
| CTGACTCC | -0.0316 |

Series 3
Target: RING finger protein unkempt homolog, zinc fingers 1-6, GST-SBP tag (UNK, Homo sapiens, UniProt Q9C0B0, residues 30-357)
Sequence of UniProt Q9C0B0 (30-357, looked up): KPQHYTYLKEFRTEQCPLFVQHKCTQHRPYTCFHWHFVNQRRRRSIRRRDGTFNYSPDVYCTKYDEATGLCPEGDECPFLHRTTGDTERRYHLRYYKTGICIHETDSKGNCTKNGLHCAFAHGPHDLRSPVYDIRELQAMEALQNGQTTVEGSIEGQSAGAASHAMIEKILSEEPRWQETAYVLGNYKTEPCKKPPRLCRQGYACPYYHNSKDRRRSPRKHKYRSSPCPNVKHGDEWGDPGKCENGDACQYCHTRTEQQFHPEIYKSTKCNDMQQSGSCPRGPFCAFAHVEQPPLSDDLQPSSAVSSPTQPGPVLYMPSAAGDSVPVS
Method: RNA Bind-n-Seq
Molecule type: RNA
Matrix: in vitro
Concentration: not given
Setting: RNA with constant flanks, human and mouse sites, ends assumed
Reference: input RNA pool
Reading: higher = stronger binding
Constant ends, left off below: GGGAGUUCUACAGUCCGACGAUC … CAACAGAGGAUUGAGCAUCA
| Oligonucleotide | bound/input enrichment |
| --- | --- |
| UUUUGCCACUUACUUUUCUGUCAUUAUAUGCUUAUUUGUUUUGUCAUUUACGUGACCAUUUGAUUCUCAAACAAAAGUUGUUCCAAACAAAAUGAUGAACUUUGAUUUGAACAGGUGCAU | 0.279 ratio |
| UAAGAAAAUAUAGUUGUGAUCUGUGUUACACACCAAUGAUUGUUGCCGCUGAUUUUGUCAAAUCUAUAAAAGCCAGAGACAGCGAAUUUACCACAAAUCAAGGUGAUUGCCCAUUGAUUG | 0.172 ratio |
| AUUGUGGAUAAAGUAUCCAGUGUAGCCAGCUCAGCGCUGGUCUCUUCCUUACACAUGAUGAAGAUAAGCUAUGAUGUGGUUAAACGAUGGAUAAAUGAAGCCCAAGAAGCUGCAUCAAGU | 0.127 ratio |
| UAGCUCAGAGGCGAUGUGGACCCUGUUCCCCAGGGUCAGGUUACCACAGACCUGUUUGUUUGUUAUGCAGUUCAUGGAGUCUCCCUGGAUUGUCUGGUUUCCCUUUCAGGGCUCCCUCCC | 0.195 ratio |
| GUAAGAGAGUUCAUGAAGGAUACUGAUUCCAUAAAUUUAUAUAAGAAUAUGAGAGAAACAUUAGUUUAUCUUACUCAUCUGGAUUAUGUAGAUACGGAAAUAAUAAUGACUAAGAAACUU | 0.271 ratio |
| GACAGUGAAAAUGCUGAACCAGAUCUGGACGACAAUGAGGAUGAGGAGGAGCCUGCCGUAGAAAUUGAACCUGAGCCAGAGCCUCAGCCUGUGACCCCAGCCCCACCACCCGCCAAGAAG | 0.298 ratio |
| GACAUCCAAGAUGAGAUGGGCAGACACGAAGUGGGCCACAUCGACAAUUCCAUGAAGAUCCCGCUGAAUAAUGGAGCCGGCUGCCGCUUCGAGGGCCAGUUCAGCAUCAACAAGGUUCCC | 0.102 ratio |

Single results of other studies
| Substance | target | assay | system | conditions | how to read | measurement | value |
| --- | --- | --- | --- | --- | --- | --- | --- |
| PhoQ, residues 284 288 289 292 302 303 SMYGEC | PhoP, residues 12 14 15 18 19 VGHWL (Escherichia coli, UniProt P23836) | Sort-seq, refers to: YFP reporter | E. coli | PhoQ-PhoP variant library, together with: 10 µM Mg2+ | reference: high Mg2+ state, higher = stronger signaling | fold induction | 15 |
